Results from different studies.
Method: steady-state kinetics
B1: protein (Danio rerio, UniProt A0A8M1P203); chain MAQEECKMISDKLLKYKETVLTLEPSYDITPEYIDSIQDFETRDDDVFVVTFPKSGTVWTQRIITLIYEEDFPEKAKQITFEQMPWIEYRKKGKDYSTRPSPRLFCSHLLEPLMPKTLKRKGKVIYVMRNPKDVMVSYFHFSKKMKNLDSAKSYDEVLENFLTGCMVGGSWFDHVKGWVTSKDKYNILILTYEEMIKDLRSVIVKICEFVGKNLSDAAIDKVVERATFKQMKVDPVANYESLPVDITDQPKGAFMRKGTVGDWRNSLTMAQSECVDGALEERMKDVPLNLVWDITELRG
B2: CYP1A2 (Homo sapiens, UniProt P05177); chain ALSQSVPFSATELLLASAIFCLVFWVLKGLRPRVPKGLKSPPEPWGWPLLGHVLTLGKNPHLALSRMSQRYGDVLQIRIGSTPVLVLSRLDTIRQALVRQGDDFKGRPDLYTSTLITDGQSLTFSTDSGPVWAARRRLAQNALNTFSIASDPASSSSCYLEEHVSKEAKALISRLQELMAGPGHFDPYNQVVVSVANVIGAMCFGQHFPESSDEMLSLVKNTHEFVETASSGNPLDFFPILRYLPNPALQRFKAFNQRFLWFLQKTVQEHYQDFDKNSVRDITGALFKHSKKGPRASGNLIPQEKIVNLVNDIFGAGFDTVTTAISWSLMYLVTKPEIQRKIQKELDTVIGRERRPRLSDRPQLPYLEAFILETFRHSSFLPFTIPHSTTRDTTLNGFYIPKKCCVFVNQWQVNHDPELWEDPSEFRPERFLTADGTAINKPLSEKMMLFGMGKRRCIGEVLAKWEIFLFLAILLQQLEFSVPPGVKVDLTPIYGLTMKHARCEHVQARLRFSIN
B3: protein (Listeria innocua, UniProt A0ACH1DCV7); chain MESLELEQLVKKVLLEKLAEQKEVPTKTTTQGAKSGVFDTVDEAVQAAVIAQNCYKEKSLEERRNVVKAIREALYPEIETIATRAVAETGMGNVTDKILKNTLAIEKTPGVEDLYTEVATGDNGMTLYELSPYGVIGAVAPSTNPTETLICNSIGMLAAGNAVFYSPHPGAKNISLWLIEKLNTIVRDSCGIDNLIVTVAKPSIQAAQEMMNHPKVPLLVITGGPGVVLQAMQSGKKVIGAGAGNPPSIVDETANIEKAAADIVDGASFDHNILCIAEKSVVAVDSIADFLLFQMEKNGALHVTNPSDIQKLEKVAVTDKGVTNKKLVGKSATEILKEAGIACDFTPRLIIVETEKSHPFATVELLMPIVPVVRVPDFDEALEVAIELEQGLHHTATMHSQNISRLNKAARDMQTSIFVKNGPSFAGLGFRGEGSTTFTIATPTGEGTTTARHFARRRRCVLTDGFSIR
B4: enzyme (Brachypodium distachyon, UniProt I1HY48); chain MGSIASEERTVTGWAARDADGHLSPYTYTLRKTGPEDVLVKVLYCGICHTDIHQAKNHLGASKYPMVPGHEVVGEVVEVGGEVSKYSAGDVVGVGVIVGCCRECRPCKASVEQYCNKRIWSYNDVYTDGRPTQGGFSSAMVVDQKFVVRIPAGLAPEQAAPLLCAGVTVYSPLKHFGLMSPGLRGGILGLGGVGHMGVKVAKSMGHHVTVISSSGKKRAEAMDDLGADAYLVSSDADQMAAAADSLDYVIDTVPVKHPLEPYLSLLKMDGKLVLMGVIGEPLSFVSPMVMLGRKSITGSFIGSMEETEEVLKFCVEKGLTSQIEVVKMDYLNEALERLERNDVRYRFVVDVAGSKIEDAA
B5: HCT R356D (Coleus scutellarioides, UniProt E8ZAP2); chain MKIHVRDSTLVRPSAATPAVSLWNSNVDLVVPNFHTPSVYFYRPSGADNFFDTAVMKAALGRALVSFYPMAGRLKRDEDGRVEIDCNAEGVLFVEAESDGTVDDYGDFAPSLELRRLIPAVDYSQGISAYPLLVLQVTFFKCGGVSLGVGMQHHAADGFSGLHFINTWSDMARGLDITLPPFIDRTLLSARDPPQPQFKHVEYQPPPAMKTYEPAETVVSIFKLTKDQLTTLKAKSKEDGNTTTYSSYEMLSGHVWRCTCLARGLPEEQETKLYIATDGRSRLQPQLPPGYFGNVIFTATPLAVAGDLGSKPVWYAASKIHDALARMDNDYLRSALDFLELQPDLKALVRGAHTFDCPNLGITSWVRLPIHDADFGWGRPIFMGPGGIAYEGLSFVLPSPTNDGSLSVAISLQAEHMKLFEKLLYQI
B6: enzyme S124T (Arabidopsis thaliana, UniProt O82390); chain MNARALLCSSNIHSLYTSNRPPEKTSSSRSLRNLKPSPKSLRVWIYPRNRSSVFRVLVRSSDKSESSNSYYVEGDKVSGNNDVVSDSPSSIVLPWWEEFPKRWVIVLLCFSAFLLCNMDRVNMTIAILPMSAEYGWNPATVGLIQSSFFWGYLLTQIAGGIWADTVGGKRVLGFGVIWWSIATILTPVAAKLGLPYLLVVRAFMGVGEGVAMPAMNNILSKWVPVQERSRSLALVYSGMYLGSVTGLAFSPFLIHQFGWPSVFYSFGSLGTVWLTLWLTKAESSPLEDPTLLPEERKLIADNCASKEPVKSIPWRLILSKPPVWALISCHFCHNWGTFILLTWMPTYYHQVLKFNLMESGLLSVFPWMTMAISANAGGWIADTLVSRGFSVTNVRKIMQTIGFLGPAFFLTQLKHIDSPTMAVLCMACSQGTDAFSQSGLYSNHQDIAPRYSGVLLGLSNTAGVLAGVLGTAATGHILQHGSWDDVFTISVGLYLVGTVIWNLFSTGEKIID
B7: UGT3A2 Y474C (Homo sapiens, UniProt Q3SY77); chain AKILTISTVGGSHYLLMDRVSQILQDHGHNVTMLNHKRGPFMPDFKKEEKSYQVISWLAPEDHQREFKKSFDFFLEETLGGRGKFENLLNVLEYLALQCSHFLNRKDIMDSLKNENFDMVIVETFDYCPFLIAEKLGKPFVAILSTSFGSLEFGLPIPLSYVPVFRSLLTDHMDFWGRVKNFLMFFSFCRRQQHMQSTFDNTIKEHFTEGSRPVLSHLLLKAELWFINSDFAFDFARPLLPNTVYVGGLMEKPIKPVPQDLENFIAKFGDSGFVLVTLGSMVNTCQNPEIFKEMNNAFAHLPQGVIWKCQCSHWPKDVHLAANVKIVDWLPQSDLLAHPSIRLFVTHGGQNSIMEAIQHGVPMVGIPLFGDQPENMVRVEAKKFGVSIQLKKLKAETLALKMKQIMEDKRYKSAAVAASVILRSHPLSPTQRLVGWIDHVLQTGGATHLKPCVFQQPWHEQYLLDVFVFLLGLTLGTLWLCGKLLGMAVWWLRGARKVKET
B8: protein (Adiantum capillus-veneris, UniProt A0A4Y6I289); chain MTDAVENKQVEFGALEVEGIKFAPSVAALGSTKQLVLGGAGFRGLEISGNLVKFTAIGIYVDEAIIPHLSPKLHGKSIEELCNNELLFEEVLAAPFEKLVRVVFLLPLTGPQYSEKVVERMGLLPNPGIKEESTKQFLEIFKPENFPPRTSLICSFTEEALKVAFMKTDDFPEDADAVIEDKWLARAFLASIIGKDGVSPLAKLSFAERMSRCL
B9: HEM1 (Saccharomyces cerevisiae, UniProt P09950); chain AAAAANHSTQESGFDYEGLIDSELQKKRLDKSYRYFNNINRLAKEFPLAHRQREADKVTVWCSNDYLALSKHPEVLDAMHKTIDKYGCGAGGTRNIAGHNIPTLNLEAELATLHKKEGALVFSSCYVANDAVLSLLGQKMKDLVIFSDELNHASMIVGIKHANVKKHIFKHNDLNELEQLLQSYPKSVPKLIAFESVYSMAGSVADIEKICDLADKYGALTFLDEVHAVGLYGPHGAGVAEHCDFESHRASGIATPKTNDKGGAKTVMDRVDMITGTLGKSFGSVGGYVAASRKLIDWFRSFAPGFIFTTTLPPSVMAGATAAIRYQRCHIDLRTSQQKHTMYVKKAFHELGIPVIPNPSHIVPVLIGNADLAKQASDILINKHQIYVQAINFPTVARGTERLRITPTPGHTNDLSDILINAVDDVFNELQLPRVRDWESQGGLLGVGESGFVEESNLWTSSQLSLTNDDLNPNVRDPIVKQLEVSSGIKQ
B10: ADA (Homo sapiens, UniProt P00813); chain MAQTPAFDKPKVELHVHLDGSIKPETILYYGRRRGIALPANTAEGLLNVIGMDKPLTLPDFLAKFDYYMPAIAGCREAIKRIAYEFVEMKAKEGVVYVEVRYSPHLLANSKVEPIPWNQAEGDLTPDEVVALVGQGLQEGERDFGVKARSILCCMRHQPNWSPKVVELCKKYQQQTVVAIDLAGDETIPGSSLLPGHVQAYQEAVKSGIHRTVHAGEVGSAEVVKEAVDILKTERLGHGYHTLEDQALYNRLRQENMHFEICPWSSYLTGAWKPDTEHAVIRLKNDQANYSLNTDDPLIFKSTLDTDYQMTKRDMGFTEEEFKRLNINAAKSSFLPEDEKRELLDLLYKAYGMPPSASAGQNL
Sequence of UniProt H6U1I8 (whole entry, looked up): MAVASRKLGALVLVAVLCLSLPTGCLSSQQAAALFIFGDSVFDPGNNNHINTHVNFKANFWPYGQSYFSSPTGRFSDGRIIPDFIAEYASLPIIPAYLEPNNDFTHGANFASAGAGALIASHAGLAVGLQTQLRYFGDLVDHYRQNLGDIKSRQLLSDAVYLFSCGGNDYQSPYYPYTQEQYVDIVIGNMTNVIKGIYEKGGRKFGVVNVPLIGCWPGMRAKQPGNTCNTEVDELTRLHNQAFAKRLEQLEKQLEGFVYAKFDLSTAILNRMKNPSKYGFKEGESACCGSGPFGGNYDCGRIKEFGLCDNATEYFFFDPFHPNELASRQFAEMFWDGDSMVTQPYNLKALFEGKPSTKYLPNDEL
Sequence of UniProt Q01740 (whole entry, looked up): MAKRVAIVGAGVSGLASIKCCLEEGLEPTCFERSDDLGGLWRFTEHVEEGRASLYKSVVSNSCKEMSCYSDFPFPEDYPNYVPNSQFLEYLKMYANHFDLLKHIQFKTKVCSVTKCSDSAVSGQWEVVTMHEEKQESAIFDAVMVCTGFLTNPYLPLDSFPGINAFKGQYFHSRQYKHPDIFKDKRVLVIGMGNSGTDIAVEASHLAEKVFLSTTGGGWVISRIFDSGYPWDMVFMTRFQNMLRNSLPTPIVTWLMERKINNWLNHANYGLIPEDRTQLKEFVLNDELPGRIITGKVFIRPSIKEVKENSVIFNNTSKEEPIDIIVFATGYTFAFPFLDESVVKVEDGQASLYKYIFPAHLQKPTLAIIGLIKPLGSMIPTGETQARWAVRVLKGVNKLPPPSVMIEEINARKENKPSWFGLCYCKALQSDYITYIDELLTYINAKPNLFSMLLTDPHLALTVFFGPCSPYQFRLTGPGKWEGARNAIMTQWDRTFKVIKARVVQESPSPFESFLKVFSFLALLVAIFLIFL
Sequence of UniProt O60656 (whole entry, looked up): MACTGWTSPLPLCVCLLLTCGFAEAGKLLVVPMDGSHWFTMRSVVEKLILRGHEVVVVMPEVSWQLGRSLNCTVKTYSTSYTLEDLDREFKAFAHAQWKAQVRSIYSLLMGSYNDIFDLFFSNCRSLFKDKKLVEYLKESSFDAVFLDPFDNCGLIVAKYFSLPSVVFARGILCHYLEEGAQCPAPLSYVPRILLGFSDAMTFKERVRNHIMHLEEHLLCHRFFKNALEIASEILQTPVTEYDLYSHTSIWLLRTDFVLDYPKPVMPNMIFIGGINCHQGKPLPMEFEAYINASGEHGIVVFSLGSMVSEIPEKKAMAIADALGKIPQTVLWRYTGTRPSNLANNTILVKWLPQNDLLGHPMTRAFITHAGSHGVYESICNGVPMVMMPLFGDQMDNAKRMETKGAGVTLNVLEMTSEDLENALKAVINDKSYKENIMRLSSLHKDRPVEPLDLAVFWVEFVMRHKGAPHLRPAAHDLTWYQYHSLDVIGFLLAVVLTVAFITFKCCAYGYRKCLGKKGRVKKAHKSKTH

Molecule = B1 (protein); substrate = C[C@H](CCCC(CO)CO)[C@H]1CC[C@H]2[C@@H]3[C@H](O)C[C@H]4C[C@H](O)CC[C@]4(C)[C@H]3C[C@H](O)[C@]12C; conditions = pH 7, 28 °C, substrate inhibition, with: PAPS 14 µM; Vmax = 0.00959 µmol/min/mg
Molecule = B2 (CYP1A2); substrate = COc1cc2c(cc1CC=C(C)C)C(=O)C[C@@H](c1ccc(O)cc1)O2; conditions = pH 7.4, 37 °C; Vmax = 0.000122 µmol/min/mg
Molecule = oxalate oxidase (Gelatoporia subvermispora, UniProt Q5ZH56); substrate = O=C(O)C(=O)O; conditions = pH 4, with: oxalate 0.01-90 mM; Vmax = 18.2 µmol/min/mg
Molecule = B3 (protein); substrate = CC=O; test system = cell extract; conditions = not purified, with: CoA; Vmax = 9.06 µmol/min/mg
Molecule = B4 (enzyme); substrate = NC(=O)c1ccc[n+]([C@@H]2O[C@H](COP(=O)(O)OP(=O)(O)OC[C@H]3O[C@@H](n4cnc5c(N)ncnc54)[C@H](OP(=O)(O)O)[C@@H]3O)[C@@H](O)[C@H]2O)c1; conditions = pH 8.8, 23 °C, cofactor varied; Vmax = 7.55 µmol/min/mg
Molecule = enzyme (Tanacetum cinerariifolium, UniProt H6U1I8); substrate = CC(C)=C[C@@H]1[C@@H](C(=O)SCCn2ccnc2)C1(C)C; conditions = pH 7.5, 25 °C; Vmax = 0.2 µmol/min/mg
Molecule = FMO1 (Homo sapiens, UniProt Q01740); substrate = CN1CCC[C@H]1c1cccnc1; test system = HEK293 microsomes; conditions = 37 °C, not purified, with: NADPH regenerating system; Vmax = 1.1e-05 µmol/min/mg
Molecule = B5 (HCT R356D); substrate = NCCc1ccc(O)c(O)c1; conditions = pH 8, pseudo-first-order, with: p-coumaroyl CoA; Vmax = 1.83 µmol/min/mg
Molecule = Gcs (Leishmania donovani, UniProt Q67BG3); substrate = N[C@@H](CS)C(=O)O; conditions = apparent, with: ATP, L-glutamate, Mg2+; Vmax = 75.2 µM/min/mg
Molecule = B6 (enzyme S124T); substrate = O=P(O)(O)O; conditions = pH 6.5, 25 °C, apparent, not purified; Vmax = 0.00505 µmol/min/mg
Molecule = B7 (UGT3A2 Y474C); substrate = O=c1ccn([C@@H]2O[C@H](CO[P@@](=O)(O)O[P@@](=O)(O)O[C@H]3O[C@H](CO)[C@@H](O)[C@H](O)[C@H]3O)[C@@H](O)[C@H]2O)c(=O)[nH]1; conditions = pH 7.4, 37 °C, not purified, with: 1-OH-pyrene 16 µM, MgCl2 10 mM, alamethicin; Vmax = 9.5e-05 µmol/min/mg
Molecule = enzyme (Oryctolagus cuniculus, UniProt A0A5F9DQ59); substrate = O=c1oc2c(O)c(O)ccc2cc1-c1nc2ccccc2s1; conditions = pH 7.4, 37 °C; Vmax = 0.00033 µmol/min/mg
Molecule = B8 (protein); substrate = O=C(/C=C/c1ccc(O)cc1)c1ccc(O)cc1O; Vmax = 0.553 µmol/min/mg
Molecule = B9 (HEM1); substrate = CC(C)(COP(=O)(O)OP(=O)(O)OC[C@H]1O[C@@H](n2cnc3c(N)ncnc32)[C@H](O)[C@@H]1OP(=O)(O)O)[C@@H](O)C(=O)NCCC(=O)NCCSC(=O)CCC(=O)O; conditions = pH 7.4, 30 °C; Vmax = 0.121 µmol/min/mg
Molecule = B10 (ADA); substrate = Nc1ncnc2c1ncn2[C@H]1C[C@H](O)[C@@H](CO)O1; test system = HEK293, cell homogenate; conditions = pH 5.8, 37 °C, not purified; Vmax = 0.468 µmol/min/mg
Molecule = UGT1A9 (Homo sapiens, UniProt O60656); substrate = O=c1c(O)c(-c2ccc(O)cc2O)oc2cc(O)cc(O)c12; conditions = pH 7.4, 37 °C; Vmax = 4e-05 µmol/min/mg

Some of these lines once more:
Molecule = B2 (CYP1A2); substrate = COc1cc2c(cc1CC=C(C)C)C(=O)C[C@@H](c1ccc(O)cc1)O2; conditions = pH 7.4, 37 °C; Vmax = 0.000122 µmol/min/mg
Molecule = B10 (ADA); substrate = Nc1ncnc2c1ncn2[C@H]1C[C@H](O)[C@@H](CO)O1; test system = HEK293, cell homogenate; conditions = pH 5.8, 37 °C, not purified; Vmax = 0.468 µmol/min/mg
